Measurements gathered from unrelated publications.
Parts stem from different laboratories: compare values within a part only.

Study 1 — technique: RNA Bind-n-Seq; molecule type: RNA; matrix: in vitro; concentration: 200 nM; setting: whole 134-nt RNA, ends assumed; together with: 150 mM KCl; relative to: input library; direction: higher = stronger binding
Target: Fragile X messenger ribonucleoprotein 1, C-terminal low-complexity region (Fmr1, Mus musculus, UniProt P35922)
All sequences stand within: GGGAGUUCUACAGUCCGACGAUC … UGGAAUUCUCGGGUGUCAAGG
Sequence | log2 enrichment
CUCAAGUCCUGUGCUACACAUCGUAUGUACCGAAUCGGUUUGGAAAGGAAAGGAAAGUAUUAUGUUACGCCGUUCGGAUCUGCACUUCCA | -0.0274
UCCUCCCUGGCUUCAGCCAGUCCCUGACGCUGAGCACUGGCUUCCGAGUCAUCAAGAAGAAGCUGUACAGCUCGGAACAGCUGCUCAUUG | -0.96
AAGUCCUGUGCUACACAUCGUAUGUACCGAAUCAAACCCCCAAACCCAAACCCAAAAAAGUAUUAUGUUACGCCGUUCGGAUCUGCACUU | -0.399
GUCCUGUGCUACACAUCGUAUGUACCGAAUCGGCCCCCCGGGCCCCCCGGCCCCCCGGGAAAGUAUUAUGUUACGCCGUUCGGAUCUGCA | -0.406
UAGCAUAUUGCCUUGUUCACUACCGAGGAGAUGAGAAGAUUAAAGGUUUCAUAUGGGAUCUCAUUACUCCAACUGAAGAUGGACAGACAC | 0.196

Study 2 — technique: universal PBM; molecule type: double-stranded DNA, one strand shown; matrix: in vitro; concentration: 600 nM; direction: higher = stronger binding
Target: Sal-like protein 4, full length isoform A (SALL4, Homo sapiens, UniProt Q9UJQ4, residues 1-1053)
UniProt Q9UJQ4, sequence (whole entry, looked up): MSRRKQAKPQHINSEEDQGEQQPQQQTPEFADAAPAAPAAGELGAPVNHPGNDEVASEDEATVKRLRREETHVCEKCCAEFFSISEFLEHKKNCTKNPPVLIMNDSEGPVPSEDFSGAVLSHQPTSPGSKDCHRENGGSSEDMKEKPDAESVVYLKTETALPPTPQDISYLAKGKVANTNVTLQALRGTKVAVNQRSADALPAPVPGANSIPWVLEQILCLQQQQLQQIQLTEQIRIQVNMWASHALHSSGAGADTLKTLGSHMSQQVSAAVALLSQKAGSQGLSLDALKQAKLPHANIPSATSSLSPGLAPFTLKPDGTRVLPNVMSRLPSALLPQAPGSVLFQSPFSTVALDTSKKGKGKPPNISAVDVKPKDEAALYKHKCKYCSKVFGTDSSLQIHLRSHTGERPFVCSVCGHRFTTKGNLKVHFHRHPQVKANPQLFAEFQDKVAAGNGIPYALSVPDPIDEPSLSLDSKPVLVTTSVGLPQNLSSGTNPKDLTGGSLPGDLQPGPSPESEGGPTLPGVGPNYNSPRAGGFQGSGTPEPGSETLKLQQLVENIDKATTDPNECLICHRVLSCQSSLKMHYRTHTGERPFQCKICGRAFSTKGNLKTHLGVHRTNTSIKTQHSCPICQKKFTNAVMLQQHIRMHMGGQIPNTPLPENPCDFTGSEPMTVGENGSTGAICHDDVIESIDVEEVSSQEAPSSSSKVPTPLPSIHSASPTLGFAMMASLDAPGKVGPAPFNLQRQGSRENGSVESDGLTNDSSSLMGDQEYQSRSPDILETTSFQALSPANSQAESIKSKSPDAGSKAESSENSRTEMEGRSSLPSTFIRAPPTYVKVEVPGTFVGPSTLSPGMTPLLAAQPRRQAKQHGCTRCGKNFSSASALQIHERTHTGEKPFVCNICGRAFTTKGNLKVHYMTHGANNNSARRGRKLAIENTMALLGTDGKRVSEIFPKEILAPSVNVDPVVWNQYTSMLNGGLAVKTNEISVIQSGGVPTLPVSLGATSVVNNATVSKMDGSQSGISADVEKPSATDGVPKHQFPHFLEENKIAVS
Setting: 8-mer, flanks averaged, mean of replicates
Sequence | E-score
AAAAGACT | 0.114
ATGACAGC | 0.0425
AGCAATAA | 0.294
ATTTCTGC | 0.274

Study 3 — technique: protein binding microarray; molecule type: double-stranded DNA, one strand shown; matrix: in vitro; concentration: not given; relative to: not given; direction: higher = stronger binding
Target: Histone acetyltransferase KAT6A, both winged helices, GST fusion (KAT6A, Homo sapiens, UniProt Q92794, residues 1-181)
Setting: 8-mer, flanks averaged, mean of 2 arrays, mostly near background
Residues (chain): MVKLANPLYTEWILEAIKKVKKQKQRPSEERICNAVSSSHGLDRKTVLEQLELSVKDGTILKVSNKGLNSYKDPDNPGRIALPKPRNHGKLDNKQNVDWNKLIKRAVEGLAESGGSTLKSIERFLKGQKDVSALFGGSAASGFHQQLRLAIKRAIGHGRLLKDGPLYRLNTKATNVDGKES
Sequence | E-score
GCCAGCGC | 0.258
CCAGTGCA | -0.171
ATGTAAAC | 0.0832
CAACAATC | -0.145
CGATTTCA | 0.0486

Mixed results
Molecule | target | assay | system | conditions | scale | endpoint | result
PhoQ, residues 284 288 289 292 302 303 ASASEQ | PhoP, residues 12 14 15 18 19 IQSYL (Escherichia coli, UniProt P23836) | Sort-seq, item: YFP reporter | E. coli | PhoQ-PhoP variant library, together with: 10 µM Mg2+ | relative to: high Mg2+ state, higher = stronger signaling | fold induction | 8.32

Repeated from above (study 3):
Sequence | E-score
CGATTTCA | 0.0486
